Experimental data of several laboratories.
± marks the error that the study gave.
UniProt Q8IVT5, sequence (whole entry, looked up): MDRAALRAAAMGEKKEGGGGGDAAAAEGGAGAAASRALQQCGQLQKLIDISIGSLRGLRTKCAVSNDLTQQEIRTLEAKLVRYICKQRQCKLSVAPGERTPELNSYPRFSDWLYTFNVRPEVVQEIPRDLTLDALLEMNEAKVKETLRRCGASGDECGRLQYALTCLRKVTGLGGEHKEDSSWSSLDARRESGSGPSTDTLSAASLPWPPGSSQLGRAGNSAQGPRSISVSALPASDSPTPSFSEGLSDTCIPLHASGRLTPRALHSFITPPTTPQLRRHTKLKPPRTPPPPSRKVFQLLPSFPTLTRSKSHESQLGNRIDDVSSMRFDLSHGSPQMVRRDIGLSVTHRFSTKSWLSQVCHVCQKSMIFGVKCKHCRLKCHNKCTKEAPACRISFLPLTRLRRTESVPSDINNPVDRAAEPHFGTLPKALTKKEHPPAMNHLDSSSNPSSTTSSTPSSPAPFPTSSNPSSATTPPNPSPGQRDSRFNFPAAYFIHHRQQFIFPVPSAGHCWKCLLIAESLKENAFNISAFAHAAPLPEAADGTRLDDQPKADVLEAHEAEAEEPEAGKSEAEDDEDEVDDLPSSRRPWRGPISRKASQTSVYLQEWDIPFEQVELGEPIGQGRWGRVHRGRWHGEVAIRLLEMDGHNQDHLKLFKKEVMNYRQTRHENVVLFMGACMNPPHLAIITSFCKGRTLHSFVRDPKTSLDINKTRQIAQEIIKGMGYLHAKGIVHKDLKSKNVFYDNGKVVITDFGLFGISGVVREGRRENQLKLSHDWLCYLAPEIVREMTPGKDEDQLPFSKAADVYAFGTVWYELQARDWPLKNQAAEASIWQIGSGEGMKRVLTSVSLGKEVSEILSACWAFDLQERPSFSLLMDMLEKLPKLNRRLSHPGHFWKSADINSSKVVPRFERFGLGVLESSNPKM

SMILES = CC(=O)N1CCC(C(=O)N2CCN3C(=O)c4cc(-c5ccccc5)ccc4NC(=O)C3C2)CC1 (stereo not shown); tested on = Salmonella typhimurium; system = TA100; conditions = 1.58 µg/plate, added: rat liver S9; endpoint = revertants per plate; value = 113
SMILES = COc1cccc(-c2n[nH]c(SCc3ccccn3)n2)c1OC; tested on = Salmonella typhimurium; assay = Ames test, plate incorporation; system = TA1537; conditions = 2.0 mg/plate, without S9; endpoint = revertant colonies per plate; value = 3
SMILES = [Cl-].[Cl-].[Pt+2].[Ru+2].c1ccc(-c2nccnc2-c2ccccn2)nc1.c1cnc2c(c1)ccc1cccnc12.c1cnc2c(c1)ccc1cccnc12; tested on = Danio rerio; system = embryos; conditions = 30 µM, 72 h; endpoint = hatching rate; value = 36.7 ± 6.3%
SMILES = CO[C@H]1C[C@@H]2CC[C@@H](C)[C@@](O)(O2)C(=O)C(=O)N2CCCC[C@H]2C(=O)O[C@H]([C@H](C)C[C@@H]2CC[C@@H](OC(=O)NCCOCCOCCOCCOCCOCCOCCOCCOCCC(=O)N3CCc4cc(Cn5nc(-c6ccc7oc(N)nc7c6)c6c(N)ncnc65)ccc4C3)[C@H](OC)C2)C[C@@H](O)[C@H](C)/C=C(\C)[C@@H](O)[C@@H](OC)C(=O)[C@H](C)C[C@H](C)/C=C/C=C/C=C/1C; system = patients with advanced solid tumours; conditions = intravenous, 8 mg weekly, any grade; endpoint = constipation incidence; value = 18.8%
SMILES = C[C@H]1CN(c2n[nH]c3nc(N[C@H]4CC[C@H](NS(=O)(=O)CCC(F)(F)F)CC4)ncc23)CCO1; tested on = KSR1 (Homo sapiens, UniProt Q8IVT5); assay = inhibitor, Kinobeads competition profiling; conditions = 0.032 µM; scale = baseline: vehicle; endpoint = relative abundance; value = 1.09
SMILES = CN1CC[C@@H](c2c(O)cc(O)c3c(=O)cc(-c4ccc(C(F)(F)F)cc4Cl)oc23)[C@@H]1CO; assay = measured: Hypoalbuminemia; system = relapsed AML; conditions = oral, 200 mg, grade 3-4, intermittent dosing; endpoint = patients with adverse event; value = 20%
SMILES = OC(CCN1CC=C(c2ccc(F)cc2)CC1)c1ccc(F)c2ccccc12 (stereo not shown); tested on = Salmonella typhimurium; assay = SOS response, SOS/umu test; system = TA1535/pSK1002, TGA medium; conditions = 0.000488 mg/mL, 4 h, without S9; scale = baseline: untreated; endpoint = induction factor; value = 0.8
SMILES = [Cl-].[Cl-].[Pt+2].[Ru+2].c1ccc(-c2nc3ccccc3nc2-c2ccccn2)nc1.c1cnc2c(c1)ccc1cccnc12.c1cnc2c(c1)ccc1cccnc12; tested on = Danio rerio; system = embryos; conditions = 45 µM, 96 h; endpoint = survival rate; value = 73.3 ± 2.4%
SMILES = O=[N+]([O-])c1ccc(NC2CCNCC2)c(C(F)(F)F)c1; tested on = Salmonella typhimurium; assay = SOS response, SOS/umu test; system = TA1535/pSK1002, TGA medium; conditions = 0.5 mg/mL, 4 h, added: 10% rat liver S9; scale = baseline: untreated; endpoint = induction factor; value = 0.7
SMILES = [Cl-].[Cl-].[Pt+2].[Ru+2].c1ccc(-c2nc3cc4ccccc4cc3nc2-c2ccccn2)nc1.c1cnc2c(c1)ccc1cccnc12.c1cnc2c(c1)ccc1cccnc12; tested on = Danio rerio; system = embryos; conditions = 45 µM, 48 h; endpoint = hatching rate; value = 30 ± 2.1%
SMILES = O=[N+]([O-])c1ccc(N2CCC(NCCC(O)c3ccc(F)c4ccccc34)CC2)c(C(F)(F)F)c1 (stereo not shown); tested on = Salmonella typhimurium; assay = SOS response, SOS/umu test; system = TA1535/pSK1002, TGA medium; conditions = 0.000244 mg/mL, 4 h, without S9; scale = baseline: untreated; endpoint = induction factor; value = 0.5
SMILES = COc1cc2c(Oc3ccc4[nH]c(C)cc4c3F)ccnc2cc1OCC1(N)CC1; system = paediatric recurrent refractory sarcoma; conditions = 10 mg; endpoint = grade 3 sinus arrhythmia; value = 0%
SMILES = Cc1cc(C(=O)NC(C)(C)COc2cccc3c2C(N)=NS(=O)(=O)N3)cc(C)n1; tested on = Salmonella typhimurium; assay = Ames test, confirmatory; system = TA1535; conditions = 333 µg/plate; scale = baseline: solvent control; endpoint = revertant ratio; value = 0.9

A few entries again:
SMILES = COc1cc2c(Oc3ccc4[nH]c(C)cc4c3F)ccnc2cc1OCC1(N)CC1; system = paediatric recurrent refractory sarcoma; conditions = 10 mg; endpoint = grade 3 sinus arrhythmia; value = 0%
SMILES = Cc1cc(C(=O)NC(C)(C)COc2cccc3c2C(N)=NS(=O)(=O)N3)cc(C)n1; tested on = Salmonella typhimurium; assay = Ames test, confirmatory; system = TA1535; conditions = 333 µg/plate; scale = baseline: solvent control; endpoint = revertant ratio; value = 0.9
